# Published values pooled from the literature.
# Each line is one published result; not all experiments were run side by side. ± marks the error that the study gave.
# Organism: Candida tropicalis
Structure (SMILES),test,system,setting,measurement,result
C=C1NC(=O)C2C[S+]([O-])CC3NC(=O)C(CSC(C)C(NC(=S)C(Cc4cnc[nH]4)NC(=O)c4csc(C(C)NC(C)=O)n4)C(=O)N[C@H](CC(C)C(=O)NC(=O)CC(C(=O)O)NC(=O)C(C)NC3=O)C(=O)N2)NC(=O)[C@@H]2CCCN2C(=O)[C@@H](CC(C)C)NC1=O (some centres unmarked),EUCAST broth microdilution,"clinical isolate, RPMI 1640 with MOPS","pH 7.0, 37 °C, 2% glucose",MIC,> 32 µg/mL
CCCCCCCC(=O)NCCCC[C@H](NC(=O)CCCCCCC)C(=O)N[C@@H](CCCCNC(=O)CCCCCCC)C(=O)NCC(=O)NCC(=O)NCC(=O)N[C@@H](CS)C(=O)N[C@@H](CCCNC(=N)N)C(=O)N[C@@H](CCCCN)C(=O)N1CCC[C@H]1C(=O)N[C@@H](CS)C(=O)N[C@@H](CCCNC(=N)N)C(=O)N[C@@H](CCCCN)C(=O)N1CCC[C@H]1C(=O)N[C@@H](CS)C(=O)N[C@@H](CCCNC(=N)N)C(=O)N[C@@H](CCCCN)C(=O)N1CCC[C@H]1C(=O)N[C@@H](CS)C(=O)N[C@@H](CCCNC(=N)N)C(=O)N[C@@H](CCCCN)C(=O)N1CCC[C@H]1C(N)=O,broth microdilution,"CGMCC 2.197, RPMI-1640","48 h, 30 °C",MIC,8 µM
O=c1n(CCNCCOS(=O)(=O)c2ccccc2)c(=O)n(S(=O)(=O)c2ccccc2)c(=O)n1S(=O)(=O)c1ccccc1,"microbial growth, broth dilution",,,MIC,32 µg/mL
CC(C)C[C@H](NC(=O)[C@H](CC(C)C)NC(=O)[C@H](CCCCN)NC(=O)CNC(=O)[C@H](CC(C)C)NC(=O)CNC(=O)[C@H](CO)NC(=O)[C@H](CC(C)C)NC(=O)[C@H](CC(C)C)NC(=O)[C@H](CO)NC(=O)[C@H](CCCCN)NC(=O)[C@H](CC(C)C)NC(=O)[C@H](CCCCN)NC(=O)[C@H](CCCCN)NC(=O)[C@H](C)NC(=O)[C@H](C)NC(=O)[C@H](C)NC(=O)CNC(=O)[C@H](CO)NC(=O)[C@H](Cc1c[nH]c2ccccc12)NC(=O)[C@@H](N)CCCCN)C(=O)O,broth microdilution,ATCC 13803,"44 h, 37 °C",MIC,1 µM
C=C1NC(=O)C2CSCC3NC(=O)C(CSC(C)C(NC(=S)C(Cc4cnc[nH]4)NC(=O)c4csc(C(C)NC(C)=O)n4)C(=O)N[C@H](CC(C)C(=O)NC(=O)CC(C(=O)O)NC(=O)C(C)NC3=O)C(=O)N2)NC(=O)[C@@H]2CCCN2C(=O)[C@@H](CC(C)C)NC1=O (some centres unmarked),EUCAST broth microdilution,"clinical isolate, RPMI 1640 with MOPS","pH 7.0, 37 °C, 2% glucose",MIC,> 32 µg/mL
CCCCCCCCCCCC(=O)NCCCC[C@H](NC(=O)CCCCCCCCCCC)C(=O)N[C@@H](CCCCNC(=O)CCCCCCCCCCC)C(=O)NCC(=O)NCC(=O)NCC(=O)N[C@@H](CS)C(=O)N[C@@H](CCCNC(=N)N)C(=O)N[C@@H](CCCCN)C(=O)N1CCC[C@H]1C(=O)N[C@@H](CS)C(=O)N[C@@H](CCCNC(=N)N)C(=O)N[C@@H](CCCCN)C(=O)N1CCC[C@H]1C(N)=O,broth microdilution,"CGMCC 2.197, RPMI-1640","48 h, 30 °C",MIC,> 128 µM
O=CCNCCOn1c(=O)n(OCCNCCO)c(=O)n(OCCNCCOn2c(=O)n(OCCNCCO)c(=O)n(OCCNCCO)c2=O)c1=O,broth microdilution,,,MLC,64 ± 6 µg/mL
CC(C)C[C@H](NC(=O)[C@H](CC(C)C)NC(=O)[C@H](CCCCN)NC(=O)CNC(=O)[C@H](CC(C)C)NC(=O)CNC(=O)[C@H](CO)NC(=O)[C@H](CC(C)C)NC(=O)[C@H](CC(C)C)NC(=O)[C@H](CO)NC(=O)[C@H](CCCCN)NC(=O)[C@H](CC(C)C)NC(=O)[C@H](CCCCN)NC(=O)[C@H](CCCCN)NC(=O)[C@H](CC(C)C)NC(=O)[C@H](CC(C)C)NC(=O)[C@H](CC(C)C)NC(=O)CNC(=O)[C@H](CO)NC(=O)[C@H](Cc1c[nH]c2ccccc12)NC(=O)[C@@H](N)CCCCN)C(=O)O,broth microdilution,ATCC 13803,"44 h, 37 °C",MIC,8 µM
